Experimental data collected from several papers.
Each line is one published result; not all experiments were run side by side.
Medium: plasma

`CCCCCCCCCCCCCC(=O)N[C@H](CCN)C(=O)N[C@@H]1C(=O)N[C@@H](CCN)C(=O)N[C@@H](CC(C)C)C(=O)N[C@@H](CCN)C(=O)N[C@H](Cc2ccccc2)C(=O)N[C@@H](CC(C)C)C(=O)N[C@@H](CCN)C(=O)N[C@H](CCN)C(=O)N[C@@H](C(C)C)C(=O)N[C@@H](CC(=O)O)C(=O)O[C@@H]1C` gave a half-life of 20.2 h (rat; subcutaneous, 10 mg/kg).
`CCN(C)C(=O)Oc1ccccc1/C=C1\Cc2cc(OC)c(OC)cc2C1=O` gave a half-life of 5.07 h (male Sprague-Dawley rat; oral, 100 mg/kg, single dose).
The half-life of `C[C@]12CC[C@H](OC(=O)NC3CCNCC3)C[C@H]1CC[C@@H]1[C@@H]2CC[C@]2(C)[C@@H](c3ccc(=O)oc3)CC[C@]12O` is reported as 4.59 h (male Sprague-Dawley rat; intravenous, 5 mg/kg, single dose).
For `CC(C)C[C@@H](N)C(=O)NCC(=O)N[C@H](C)C(=O)N[C@H](CO)C(=O)N[C@H](Cc1c[nH]c2ccccc12)C(=O)N[C@H](Cc1c[nH]cn1)C(=O)N[C@H](CCCNC(=N)N)C(=O)N1CCC[C@@H]1C(=O)N[C@H](CC(=O)O)C(=O)N[C@H](CCCCN)C(=O)N[C@H](CS)C(=O)N[C@H](CS)C(=O)N[C@H](CC(C)C)C(=O)NCC(=O)N[C@H](Cc1ccc(O)cc1)C(=O)N[C@H](CCC(N)=O)C(=O)N[C@H](CCCCN)C(=O)N[C@H](CCCNC(=N)N)C(=O)N1CCC[C@@H]1C(=O)N[C@H](CC(C)C)C(=O)N1CCC[C@@H]1C(N)=O`, the half-life was 8.7 h (male Sprague-Dawley rat; subcutaneous, 10 mg/kg, single dose).
For `CCCC[C@@H]1NC(=O)[C@H](Cc2ccc(O)cc2)NC(=O)[C@@H]2CCCN2C(=O)[C@H](CC(=O)O)NC(=O)[C@H](C)NC(=O)[C@H](Cc2ccccc2)NC(=O)[C@@H]2CSCCC(=O)N3CN(CN(C3)C(=O)CCSC[C@@H](C(=O)N[C@@H](C)C(N)=O)NC1=O)C(=O)CCSC[C@H](NC(C)=O)C(=O)N[C@@H](CC(C)(C)C)C(=O)N1CCC[C@H]1C(=O)N[C@@H](CCC(=O)O)C(=O)N[C@H](CCCCNC(=O)CCc1cn(CCOCCOCCOCCN(CCOCCOCCOCCC(=O)N[C@H]3CSCCC(=O)N4CN5CN(C4)C(=O)CCSC[C@H](NC(=O)[C@@H](CC(=O)O)NC(=O)[C@H](Cc4cccc6ccccc46)NC(=O)[C@@H]4CCCN4C3=O)C(=O)N[C@@H](CCSC)C(=O)N[C@@H](CCCCNC(=N)N)C(=O)N[C@@H](CC(=O)O)C(=O)N[C@@H](Cc3c[nH]c4ccccc34)C(=O)N[C@@H](CO)C(=O)N[C@@H]([C@@H](C)O)C(=O)N3CCC[C@H]3C(=O)N3C[C@H](O)C[C@H]3C(=O)N[C@@H](Cc3c[nH]c4ccccc34)C(=O)N[C@H](C(N)=O)CSCCC5=O)CCOCCOCCOCCn3cc(CCC(=O)NCCCC[C@H]4NC(=O)[C@H](CCC(=O)O)NC(=O)[C@@H]5CCCN5C(=O)[C@H](CC(C)(C)C)NC(=O)[C@@H](NC(C)=O)CSCCC(=O)N5CN6CN(C5)C(=O)CCSC[C@H](NC(=O)[C@H](Cc5ccc(O)cc5)NC(=O)[C@@H]5CCCN5C4=O)C(=O)N[C@@H](Cc4ccccc4)C(=O)N[C@@H](C)C(=O)N[C@@H](CC(=O)O)C(=O)N4CCC[C@H]4C(=O)N[C@@H](Cc4ccc(O)cc4)C(=O)N[C@@H](CCCC)C(=O)N[C@H](C(=O)N[C@@H](C)C(N)=O)CSCCC6=O)nn3)nn1)C(=O)N1CCC[C@H]1C(=O)N[C@@H](Cc1ccc(O)cc1)C(=O)N2`, the half-life was 3.6 h (rat; intravenous, 2 mg/kg).
`c1ccc(C2(CCNC3CCC4(SCCS4)c4ccccc43)CCOC3(CCCC3)C2)nc1` (stereo not drawn) gave a half-life of 1.13 h (Sprague-Dawley rat; intravenous, 0.15 mg/kg).
The half-life of `CCOC(=O)[C@@H]1Cc2c(cc([N+](=O)[O-])cc2[N+](=O)[O-])[C@H](O)[C@]12C(=O)Nc1ccc(Br)cc12` is reported as 1.85 h (Sprague-Dawley rat; intravenous, 7.5 mg/kg).
`Cc1cc(Nc2nc(C[C@@]3(C(=O)O)CCN(Cc4cccc(Cl)c4F)[C@H](C)C3)cc(C)c2F)n[nH]1` has a half-life of 4.36 h (Sprague-Dawley rat; oral, 0.5 mg/kg, single dose).
The half-life of `CC[C@H](C)[C@H](NC(=O)[C@H](CCCN)NC(=O)[C@H](CC(N)=O)NC(=O)[C@H](Cc1c[nH]c2ccccc12)NC(=O)[C@H](Cc1ccccc1)NC(=O)[C@H](CCCN)NC(=O)[C@H](CCCCNC(=N)N)NC(=O)[C@H](CC(C)C)NC(=O)[C@H](Cc1c[nH]c2ccccc12)NC(=O)[C@H](CCCN)NC(=O)[C@H](CCCCNC(=N)N)NC(=O)[C@H](CC(C)C)NC(=O)CNC(C)=O)C(=O)N[C@@H](CCCN)C(=O)N[C@@H](CCCCNC(=N)N)C(N)=O` is reported as 0.66 h (male Sprague-Dawley rat; intravenous, 5 mg/kg).

For quick reference, copied from above:
For `CC(C)C[C@@H](N)C(=O)NCC(=O)N[C@H](C)C(=O)N[C@H](CO)C(=O)N[C@H](Cc1c[nH]c2ccccc12)C(=O)N[C@H](Cc1c[nH]cn1)C(=O)N[C@H](CCCNC(=N)N)C(=O)N1CCC[C@@H]1C(=O)N[C@H](CC(=O)O)C(=O)N[C@H](CCCCN)C(=O)N[C@H](CS)C(=O)N[C@H](CS)C(=O)N[C@H](CC(C)C)C(=O)NCC(=O)N[C@H](Cc1ccc(O)cc1)C(=O)N[C@H](CCC(N)=O)C(=O)N[C@H](CCCCN)C(=O)N[C@H](CCCNC(=N)N)C(=O)N1CCC[C@@H]1C(=O)N[C@H](CC(C)C)C(=O)N1CCC[C@@H]1C(N)=O`, the half-life was 8.7 h (male Sprague-Dawley rat; subcutaneous, 10 mg/kg, single dose).
